{"data": "Published values from different studies", "note": "A part holds a random share of what one study measured. Positions count from the first letter of the parent shown.", "sequence of UniProt O95747 (whole entry, looked up)": "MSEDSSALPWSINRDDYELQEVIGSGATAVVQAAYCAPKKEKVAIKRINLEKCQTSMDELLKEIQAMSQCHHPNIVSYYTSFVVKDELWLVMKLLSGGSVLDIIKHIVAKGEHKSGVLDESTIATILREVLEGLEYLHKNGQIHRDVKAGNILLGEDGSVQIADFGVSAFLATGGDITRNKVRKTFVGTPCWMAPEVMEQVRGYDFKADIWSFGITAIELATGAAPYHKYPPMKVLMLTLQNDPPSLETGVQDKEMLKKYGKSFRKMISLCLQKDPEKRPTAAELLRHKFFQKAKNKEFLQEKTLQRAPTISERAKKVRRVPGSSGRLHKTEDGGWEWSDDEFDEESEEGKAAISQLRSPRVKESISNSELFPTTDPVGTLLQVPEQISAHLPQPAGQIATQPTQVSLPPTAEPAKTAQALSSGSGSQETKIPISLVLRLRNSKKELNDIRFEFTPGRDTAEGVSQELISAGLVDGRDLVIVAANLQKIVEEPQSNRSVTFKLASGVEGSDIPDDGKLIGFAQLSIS"}
{"data": "Series 1", "target": "RNA binding protein fox-1 homolog 2, RRM domain, GST-SBP tag (RBFOX2, Homo sapiens, UniProt O43251-10, residues 100-194)", "method": "RNA Bind-n-Seq", "form": "RNA", "matrix": "in vitro", "concentration": "365 nM", "notes": "natural RNA segment, single round, ends assumed", "relative to": "no-protein control", "reading": "higher = stronger binding", "Residues (chain)": "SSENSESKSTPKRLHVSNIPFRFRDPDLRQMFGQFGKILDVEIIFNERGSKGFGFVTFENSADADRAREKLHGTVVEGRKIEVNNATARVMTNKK"}
{"Sequence": "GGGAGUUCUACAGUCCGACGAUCCAGUGAGCUGAGAUUGUGCUGCUGCACUCCAGCCUGGGAGACAGAGCGAGACUCUGUCUUAAAAAAAAAAAAAGGAGGUGAAUUUUUUUUUAAGUUUUGUAACACUGUCCUGGAAUUCUCGGGUGCCAA", "RBNS enrichment (R)": 0.974}
{"Sequence": "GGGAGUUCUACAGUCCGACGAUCUGAUGGUAAAGAACACAUUGAAAGUACUGCAGGUUGCAGUUGACAGUACCCACAUGGUCUGCAAAAGCCUGGCUUUGCUGGCAACUAUUGGAGAAUGCUUGGUUUGCAUGUGGAAUUCUCGGGUGCCAA", "RBNS enrichment (R)": 13.3}
{"Sequence": "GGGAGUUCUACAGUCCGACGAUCAUUUAGGCUUCAGAAUAUAUCCGAGAGGUGGGGAGGGUCCCUUGGAAGCUGGUGAAGUCCUGUUCUUAUUAUGAAUCCAUUCAUUCAAGAAAAUAGCCUGUUGCACAUUUUGGAAUUCUCGGGUGCCAA", "RBNS enrichment (R)": 2.02}
{"Sequence": "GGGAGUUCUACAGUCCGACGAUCCUGUGGGCUGACUGCCCUCCGAAGAGAGUUCUGGAUGUCUGGCUCAAAGCAGCAGGACUGUGGGAAAGAGCCUAACAUCUCCAUGGGGAGGCCUCACCCCAGGGACAGGGUGGAAUUCUCGGGUGCCAA", "RBNS enrichment (R)": 0.681}
{"Sequence": "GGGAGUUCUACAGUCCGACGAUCUUUUGUUGCAAGUUUGUGAAGGGGGAAAAUGUUUUGAUUUGUUUCUACUGACCUGAAUGUGUUGGAUCUUCACGUGUCGUUUUGUUUUGGCUUUAUUGAUGCACGGAUGCUGGAAUUCUCGGGUGCCAA", "RBNS enrichment (R)": 3.74}
{"Sequence": "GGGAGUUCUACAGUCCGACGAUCGCAGCUAUCUCGAGAGCCACUGCUAGAACACCUUUUCCUGGAGGCUGCCCCACCAAAUGCUCAACCUUAGGUGGAAUCUCCCUGGAACACAUACCAGGUCAGGGAGGGCCUGGAAUUCUCGGGUGCCAA", "RBNS enrichment (R)": 0.456}
{"Sequence": "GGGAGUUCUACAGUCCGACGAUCGGAGUGUGACCUUGGUGUACUGUGGCAGCCCAGAUGACUGAGUGCUACAGACGAGUGACCCUUAGAUGACCUCCUCAACUGCCUGCCUUGUGUGUGCGCGCAAGGCCCCUUGGAAUUCUCGGGUGCCAA", "RBNS enrichment (R)": 0.349}
{"Sequence": "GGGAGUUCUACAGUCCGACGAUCCAGUUUCUAUGUAUGAUACGAGUUGCUUACACGAUGCAUGGCUAACUUGUUAAUUUAGUUUUCUCCUUAGAGACUUUGAGACCCUUAAGAGACAAGAUUGAGAAAGAGCCUGGAAUUCUCGGGUGCCAA", "RBNS enrichment (R)": 4.06}
{"data": "Series 2", "target": "ABI1, truncated, D143A, DHFR fusion (Arabidopsis thaliana)", "method": "DHFR PCA, deep sequencing", "matrix": "yeast", "notes": "methotrexate growth selection, single substitutions", "with": "(+)-ABA 1.4 µM", "relative to": "wild-type fitted maximum", "reading": "higher = stronger binding", "starting sequence": "PYL1, truncated, DHFR fusion (Arabidopsis thaliana); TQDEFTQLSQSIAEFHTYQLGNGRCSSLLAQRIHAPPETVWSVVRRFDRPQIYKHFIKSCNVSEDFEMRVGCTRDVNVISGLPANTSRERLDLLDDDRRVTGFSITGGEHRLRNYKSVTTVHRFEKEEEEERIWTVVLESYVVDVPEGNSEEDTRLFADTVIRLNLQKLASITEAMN"}
{"Variant": "E125N", "relative binding score [%]": 59.8}
{"Variant": "E152F", "relative binding score [%]": 10.6}
{"Variant": "G81C", "relative binding score [%]": 4.68}
{"Variant": "N114K", "relative binding score [%]": 3.4}
{"Variant": "D3F", "relative binding score [%]": 20.7}
{"Variant": "H16R", "relative binding score [%]": 0.168}
{"Variant": "T1N", "relative binding score [%]": 54.1}
{"Variant": "D65R", "relative binding score [%]": 27.3}
{"data": "Single results of other studies", "RPS6KB2": "Ribosomal protein S6 kinase beta-2 (RPS6KB2, Homo sapiens, UniProt Q9UBS0)", "sequence of UniProt Q9UBS0 (whole entry, looked up)": "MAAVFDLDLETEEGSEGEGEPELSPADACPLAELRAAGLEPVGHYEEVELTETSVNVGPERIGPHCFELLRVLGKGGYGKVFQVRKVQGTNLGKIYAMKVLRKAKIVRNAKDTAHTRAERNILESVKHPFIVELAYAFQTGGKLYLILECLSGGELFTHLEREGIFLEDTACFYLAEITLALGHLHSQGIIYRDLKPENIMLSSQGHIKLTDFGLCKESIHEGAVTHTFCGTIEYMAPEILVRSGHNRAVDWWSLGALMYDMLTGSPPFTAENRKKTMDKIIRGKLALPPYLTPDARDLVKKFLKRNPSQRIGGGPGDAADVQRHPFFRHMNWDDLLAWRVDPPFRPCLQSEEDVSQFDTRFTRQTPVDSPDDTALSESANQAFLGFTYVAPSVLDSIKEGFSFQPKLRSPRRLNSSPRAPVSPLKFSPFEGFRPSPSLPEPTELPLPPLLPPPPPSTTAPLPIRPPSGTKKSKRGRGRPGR"}
{"Substance": "SMARCA5 (Homo sapiens, UniProt O60264)", "target or system": "MED24 (Homo sapiens, UniProt O75448)", "assay": "cross-linking MS", "test system": "cell fractions", "setting": "with: DSSO", "endpoint": "cross-linked residues", "result": "K647 to S639"}
{"Substance": "CC#CC(=O)Nc1cc2c(Nc3ccc(F)c(Cl)c3)ncnc2cn1", "target or system": "RPS6KB2", "assay": "enzyme activity, inhibitor", "setting": "0.5 µM", "scale": "relative to: control", "endpoint": "remaining activity", "result": "97.2%"}
{"Substance": "PPP1R12B (Homo sapiens, UniProt O60237)", "target or system": "USO1 (Homo sapiens, UniProt O60763)", "assay": "cross-linking MS", "test system": "cell fractions", "setting": "with: DHSO", "endpoint": "cross-linked residues", "result": "D482 to E856"}
{"Substance": "Cc1c(NC(=O)c2cc(C(N)=O)nc3cc(F)ccc23)c(C(F)(F)F)nn1Cc1ccc(C#N)cc1", "target or system": "OXSR1 (Homo sapiens, UniProt O95747)", "assay": "cell-free assay, competition with immobilised ligand", "setting": "1 µM", "endpoint": "remaining binding", "result": "67%"}
{"Substance": "SEPTIN6 (Homo sapiens, UniProt Q14141)", "target or system": "SEPTIN7 (Homo sapiens, UniProt Q16181)", "assay": "cross-linking MS", "test system": "cell fractions", "setting": "with: DHSO", "endpoint": "cross-linked residues", "result": "E404 to E419"}
{"Substance": "CC(=O)c1ccc(N2CCOCC2)cc1O", "target or system": "RPS6KB2", "assay": "enzyme activity, inhibitor", "setting": "0.5 µM", "scale": "relative to: control", "endpoint": "remaining activity", "result": "101%"}
{"Substance": "ATR (Homo sapiens, UniProt Q13535)", "target or system": "PHB2 (Homo sapiens, UniProt Q99623)", "assay": "cross-linking MS", "test system": "cell fractions", "setting": "with: DSSO", "endpoint": "cross-linked residues", "result": "S2313 to K250"}
